Results of several laboratories.
Parts stem from different laboratories: compare values within a part only. “And” joins repeats or separate records; there may be more than shown.
UniProt Q16816, sequence (whole entry, looked up): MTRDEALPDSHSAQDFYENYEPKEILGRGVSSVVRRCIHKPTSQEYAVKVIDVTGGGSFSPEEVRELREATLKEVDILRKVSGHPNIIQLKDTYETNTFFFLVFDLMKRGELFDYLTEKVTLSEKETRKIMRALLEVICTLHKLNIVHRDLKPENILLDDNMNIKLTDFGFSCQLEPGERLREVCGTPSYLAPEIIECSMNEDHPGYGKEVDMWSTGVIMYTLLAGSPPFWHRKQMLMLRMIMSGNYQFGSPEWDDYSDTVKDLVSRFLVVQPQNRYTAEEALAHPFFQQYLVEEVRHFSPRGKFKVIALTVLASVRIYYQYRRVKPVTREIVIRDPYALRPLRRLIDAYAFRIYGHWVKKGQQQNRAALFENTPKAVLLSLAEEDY
UniProt Q15418, sequence (whole entry, looked up): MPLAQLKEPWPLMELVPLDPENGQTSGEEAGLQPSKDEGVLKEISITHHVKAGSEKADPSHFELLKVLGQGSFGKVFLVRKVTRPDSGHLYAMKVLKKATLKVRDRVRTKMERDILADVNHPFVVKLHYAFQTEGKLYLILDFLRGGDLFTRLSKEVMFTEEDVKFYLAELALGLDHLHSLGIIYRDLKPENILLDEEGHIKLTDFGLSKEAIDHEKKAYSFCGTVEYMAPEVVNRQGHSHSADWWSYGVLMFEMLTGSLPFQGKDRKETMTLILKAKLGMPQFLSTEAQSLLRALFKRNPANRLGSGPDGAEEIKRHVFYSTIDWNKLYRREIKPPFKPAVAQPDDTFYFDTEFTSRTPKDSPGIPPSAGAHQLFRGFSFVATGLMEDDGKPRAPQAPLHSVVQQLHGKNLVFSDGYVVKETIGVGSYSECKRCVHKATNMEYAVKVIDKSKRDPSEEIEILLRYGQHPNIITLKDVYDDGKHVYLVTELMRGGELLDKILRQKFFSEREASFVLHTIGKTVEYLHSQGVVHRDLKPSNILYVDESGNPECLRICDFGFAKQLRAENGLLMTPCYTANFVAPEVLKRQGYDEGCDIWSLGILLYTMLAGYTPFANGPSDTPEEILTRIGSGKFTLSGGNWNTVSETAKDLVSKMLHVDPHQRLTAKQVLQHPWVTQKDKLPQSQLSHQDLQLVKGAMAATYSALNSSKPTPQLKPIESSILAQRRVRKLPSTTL
UniProt O15530, sequence (whole entry, looked up): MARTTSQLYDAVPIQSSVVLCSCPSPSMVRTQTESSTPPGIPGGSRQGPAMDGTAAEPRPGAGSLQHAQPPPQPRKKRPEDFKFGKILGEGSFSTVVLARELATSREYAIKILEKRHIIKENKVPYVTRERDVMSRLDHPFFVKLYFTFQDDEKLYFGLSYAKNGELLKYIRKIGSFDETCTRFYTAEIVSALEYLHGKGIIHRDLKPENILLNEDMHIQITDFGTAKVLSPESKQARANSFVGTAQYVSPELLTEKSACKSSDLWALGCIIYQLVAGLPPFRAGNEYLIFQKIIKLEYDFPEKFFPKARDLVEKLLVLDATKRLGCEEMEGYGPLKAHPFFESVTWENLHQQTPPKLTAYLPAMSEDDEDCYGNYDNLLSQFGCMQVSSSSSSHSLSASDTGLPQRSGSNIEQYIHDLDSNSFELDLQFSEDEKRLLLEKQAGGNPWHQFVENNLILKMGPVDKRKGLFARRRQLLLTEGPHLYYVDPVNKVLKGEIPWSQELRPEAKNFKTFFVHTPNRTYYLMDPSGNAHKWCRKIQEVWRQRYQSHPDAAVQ
UniProt Q8TD19, sequence (whole entry, looked up): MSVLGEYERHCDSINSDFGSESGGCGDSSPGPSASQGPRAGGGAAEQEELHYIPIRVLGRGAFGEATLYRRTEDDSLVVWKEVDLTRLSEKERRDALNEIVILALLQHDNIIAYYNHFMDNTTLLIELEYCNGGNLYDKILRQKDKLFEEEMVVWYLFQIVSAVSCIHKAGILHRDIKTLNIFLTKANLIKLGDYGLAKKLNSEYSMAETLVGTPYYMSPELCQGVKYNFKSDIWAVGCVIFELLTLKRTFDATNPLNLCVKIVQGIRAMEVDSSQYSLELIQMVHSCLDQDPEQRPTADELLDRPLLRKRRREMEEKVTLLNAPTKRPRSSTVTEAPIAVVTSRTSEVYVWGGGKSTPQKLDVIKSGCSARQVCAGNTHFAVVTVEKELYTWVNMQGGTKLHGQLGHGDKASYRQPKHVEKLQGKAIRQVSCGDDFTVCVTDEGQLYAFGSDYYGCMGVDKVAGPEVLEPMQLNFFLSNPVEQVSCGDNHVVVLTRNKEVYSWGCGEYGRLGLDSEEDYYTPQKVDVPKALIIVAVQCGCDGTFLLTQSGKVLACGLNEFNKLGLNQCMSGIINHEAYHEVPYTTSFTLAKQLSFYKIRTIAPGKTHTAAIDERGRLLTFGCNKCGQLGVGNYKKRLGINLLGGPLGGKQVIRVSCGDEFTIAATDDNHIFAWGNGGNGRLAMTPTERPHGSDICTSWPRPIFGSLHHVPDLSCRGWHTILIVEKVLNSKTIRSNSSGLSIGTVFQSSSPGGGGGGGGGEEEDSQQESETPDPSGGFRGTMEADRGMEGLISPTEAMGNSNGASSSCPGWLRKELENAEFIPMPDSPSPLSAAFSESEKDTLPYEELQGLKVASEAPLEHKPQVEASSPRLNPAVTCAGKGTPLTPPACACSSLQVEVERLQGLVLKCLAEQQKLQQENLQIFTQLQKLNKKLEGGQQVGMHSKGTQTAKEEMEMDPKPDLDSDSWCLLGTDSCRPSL
UniProt O75716, sequence (whole entry, looked up): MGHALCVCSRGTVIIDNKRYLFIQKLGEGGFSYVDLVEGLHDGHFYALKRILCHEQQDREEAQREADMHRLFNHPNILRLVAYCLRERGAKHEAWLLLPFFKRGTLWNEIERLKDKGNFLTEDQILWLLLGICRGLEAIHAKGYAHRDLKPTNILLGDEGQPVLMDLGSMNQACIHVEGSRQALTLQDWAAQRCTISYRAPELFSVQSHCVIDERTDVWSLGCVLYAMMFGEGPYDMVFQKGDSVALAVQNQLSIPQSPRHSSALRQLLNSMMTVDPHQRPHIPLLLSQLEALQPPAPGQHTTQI
UniProt Q9BYP7, sequence (whole entry, looked up): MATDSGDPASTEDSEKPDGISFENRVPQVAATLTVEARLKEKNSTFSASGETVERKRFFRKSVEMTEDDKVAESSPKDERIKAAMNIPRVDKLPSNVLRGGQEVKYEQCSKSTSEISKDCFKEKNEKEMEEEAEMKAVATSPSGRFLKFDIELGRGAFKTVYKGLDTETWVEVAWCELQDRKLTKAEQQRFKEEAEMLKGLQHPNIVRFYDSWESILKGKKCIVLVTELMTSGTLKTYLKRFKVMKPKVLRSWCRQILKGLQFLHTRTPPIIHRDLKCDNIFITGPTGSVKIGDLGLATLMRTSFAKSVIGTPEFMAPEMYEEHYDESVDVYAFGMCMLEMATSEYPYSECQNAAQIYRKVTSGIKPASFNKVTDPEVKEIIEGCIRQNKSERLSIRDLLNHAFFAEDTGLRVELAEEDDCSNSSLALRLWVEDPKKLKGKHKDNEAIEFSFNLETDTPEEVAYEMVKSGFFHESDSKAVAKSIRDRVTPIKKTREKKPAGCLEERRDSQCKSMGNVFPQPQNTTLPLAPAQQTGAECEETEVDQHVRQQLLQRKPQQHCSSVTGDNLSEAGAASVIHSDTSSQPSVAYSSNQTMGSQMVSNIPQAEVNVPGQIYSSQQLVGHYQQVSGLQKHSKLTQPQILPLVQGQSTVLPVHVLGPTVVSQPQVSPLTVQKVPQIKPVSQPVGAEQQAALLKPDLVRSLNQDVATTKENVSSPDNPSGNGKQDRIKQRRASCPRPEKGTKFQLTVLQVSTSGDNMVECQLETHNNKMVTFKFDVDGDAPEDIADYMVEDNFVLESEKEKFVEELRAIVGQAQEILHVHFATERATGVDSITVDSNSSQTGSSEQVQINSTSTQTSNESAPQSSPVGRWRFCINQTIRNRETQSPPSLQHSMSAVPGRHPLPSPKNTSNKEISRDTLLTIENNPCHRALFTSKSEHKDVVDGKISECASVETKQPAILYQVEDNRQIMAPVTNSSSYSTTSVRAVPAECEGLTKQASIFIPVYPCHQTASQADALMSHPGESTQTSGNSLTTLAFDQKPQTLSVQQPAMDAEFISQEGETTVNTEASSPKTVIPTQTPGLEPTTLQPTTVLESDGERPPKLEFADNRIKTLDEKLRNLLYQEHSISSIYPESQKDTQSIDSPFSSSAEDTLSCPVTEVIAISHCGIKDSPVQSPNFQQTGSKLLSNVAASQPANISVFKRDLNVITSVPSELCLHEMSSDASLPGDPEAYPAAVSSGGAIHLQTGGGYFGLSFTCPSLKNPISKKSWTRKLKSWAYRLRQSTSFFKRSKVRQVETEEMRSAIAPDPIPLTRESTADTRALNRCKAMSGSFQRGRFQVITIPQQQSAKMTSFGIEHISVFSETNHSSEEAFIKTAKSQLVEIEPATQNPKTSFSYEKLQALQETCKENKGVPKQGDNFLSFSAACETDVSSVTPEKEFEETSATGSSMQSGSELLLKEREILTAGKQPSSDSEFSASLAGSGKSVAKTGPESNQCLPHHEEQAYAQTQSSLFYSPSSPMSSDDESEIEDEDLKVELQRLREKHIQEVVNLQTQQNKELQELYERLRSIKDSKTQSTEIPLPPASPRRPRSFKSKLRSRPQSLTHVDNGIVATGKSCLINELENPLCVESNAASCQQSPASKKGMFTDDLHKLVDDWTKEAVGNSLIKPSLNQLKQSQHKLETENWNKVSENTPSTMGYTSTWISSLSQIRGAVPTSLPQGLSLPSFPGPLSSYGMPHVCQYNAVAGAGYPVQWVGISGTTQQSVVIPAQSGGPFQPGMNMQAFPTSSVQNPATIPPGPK
UniProt P11802, sequence (whole entry, looked up): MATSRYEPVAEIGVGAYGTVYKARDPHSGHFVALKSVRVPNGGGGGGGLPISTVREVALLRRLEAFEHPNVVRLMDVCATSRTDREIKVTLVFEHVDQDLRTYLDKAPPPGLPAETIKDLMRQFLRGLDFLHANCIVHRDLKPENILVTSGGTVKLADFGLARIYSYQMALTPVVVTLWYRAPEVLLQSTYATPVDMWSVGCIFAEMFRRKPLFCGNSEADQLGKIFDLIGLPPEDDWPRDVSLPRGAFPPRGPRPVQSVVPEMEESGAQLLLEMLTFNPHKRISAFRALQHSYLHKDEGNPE

Set 1
Method: linear regression of PRP log k'
Endpoint: logD (1,9-decadiene/water)
COCC(=O)OCCCCCC(=O)N[C@H](C(=O)N1C[C@H](O)C[C@H]1C(=O)NCc1ccc(-c2scnc2C)cc1)C(C)(C)C: -2.51
Cc1ncsc1-c1ccc(CNC(=O)[C@@H]2C[C@@H](O)CN2C(=O)[C@@H](NC(=O)CCCCCNC(=O)CC23C[C@H]4C[C@@H](C2)C[C@@H](C3)C4)C(C)(C)C)cc1: -0.666
CCCC(=O)OCCCCCC(=O)N[C@H](C(=O)N1C[C@H](O)C[C@H]1C(=O)NCc1ccc(-c2scnc2C)cc1)C(C)(C)C: -1.43
CCCC(=O)NCCCCCC(=O)N[C@H](C(=O)N1C[C@H](O)C[C@H]1C(=O)NCc1ccc(-c2scnc2C)cc1)C(C)(C)C: -2.95
CCCCOc1ccc(-c2ccc(C(=O)NCCCCCC(=O)N[C@H](C(=O)N3C[C@H](O)C[C@H]3C(=O)NCc3ccc(-c4scnc4C)cc3)C(C)(C)C)cc2)cc1: 1.25

Set 2
Compound: CC[n+]1c(/C=C/N(C)c2ccccc2)n(-c2ccccc2)c2ccc(-c3nc4ccccc4s3)cc21
Read-out: enzyme activity
Mode: inhibitor
Concentration: 0.5 µM
Relative to: control
Endpoint: remaining activity
HIPK2 (Homo sapiens, UniProt Q9H2X6): 103%
Cyclin-dependent kinase 4, with cyclin D3 (CDK4, Homo sapiens, UniProt P11802): 102%
PHKG1 (Homo sapiens, UniProt Q16816): 96.1%
PDPK1 (Homo sapiens, UniProt O15530): 103%
EPHB1 (Homo sapiens, UniProt P54762): 104%
WNK3 (Homo sapiens, UniProt Q9BYP7): 85.9%
STK16 (Homo sapiens, UniProt O75716): 98.4%
BLK (Homo sapiens, UniProt P51451): 99.1%

Set 3
Species: human
Matrix: microsomes or S9
Concentration: 2 µM
Time: 0.5 h
Endpoint: remaining compound
COc1cc(=O)n(C)cc1C(=O)NC(c1cccnc1)C1CCOCC1 (stereo not drawn): > 99%
CCCS(=O)(=O)c1nc2ccc(NS(=O)(=O)c3ccc(F)c(Cl)c3)cc2s1: 9.03%
CC(=O)NCCOC(=O)c1ccc(Cl)c(S(=O)(=O)N(C)C)c1: 21.5%
Cc1nn(CC(O)Cn2cnc3c2c(=O)n(C)c(=O)n3C)c(C)c1Br (stereo not drawn): 67%
Cc1nn(C)c(C)c1S(=O)(=O)Nc1ccc(-n2nn[nH]c2=O)cc1: 82%
Cc1ccc(NCc2nc3n(n2)CCCCC3)c(C)c1: 81.2%
Cc1ccccc1-c1noc(-c2cc3c(COC(=O)C(C)C)cnc(C)c3oc2=O)n1: 10.4%
CCn1cc(-c2cc(C(F)F)n3nc(C)cc3n2)c(C)n1: > 99%
O=c1[nH]c(-c2ccc(F)cc2)c(-c2ccc(F)cc2)c(=O)n1Cc1ccc(Cl)cc1Cl: > 99%
CC(C)n1ncc(N2CCOCC2)c(Cl)c1=O: 85.6%

Set 4
SMILES: CC(=O)N1CCC(c2ccc(C(=O)NC3=NCCN3)cc2C(F)(F)F)CC1
Read-out: cell-free assay
Method: competition with immobilised ligand
Concentration: 1 µM
Endpoint: remaining binding
GRK3 (Homo sapiens, UniProt P35626): 76%
RPS6KB1 (Homo sapiens, UniProt P23443): 100%
NTRK1 (Homo sapiens, UniProt P04629): 100%
ITK (Homo sapiens, UniProt Q08881): 91%
FYN (Homo sapiens, UniProt P06241): 76%
TSSK1B (Homo sapiens, UniProt Q9BXA7): 100%
Ribosomal protein S6 kinase alpha-1, C-terminal kinase domain (RPS6KA1, Homo sapiens, UniProt Q15418): 100%
MAP2K5 (Homo sapiens, UniProt Q13163): 92%
STK25 (Homo sapiens, UniProt O00506): 100%
MAP4K4 (Homo sapiens, UniProt O95819): 100%
MAPK7 (Homo sapiens, UniProt Q13164): 89%
TSSK3 (Homo sapiens, UniProt Q96PN8): 100%
MAPK14 (Homo sapiens, UniProt Q16539): 100%
Tyrosine-protein kinase ABL1, phosphorylated (ABL1, Homo sapiens, UniProt P00519, T315I): 92%
EGFR (Homo sapiens, UniProt P00533): 100%
BTK (Homo sapiens, UniProt Q06187): 97%
SIK3 (Homo sapiens, UniProt Q9Y2K2): 100%
NEK9 (Homo sapiens, UniProt Q8TD19): 100%
TLK1 (Homo sapiens, UniProt Q9UKI8): 100%
PHKG1 (Homo sapiens, UniProt Q16816): 100%
TGFBR2 (Homo sapiens, UniProt P37173): 100%
Ribosomal protein S6 kinase alpha-1, N-terminal kinase domain (RPS6KA1, Homo sapiens, UniProt Q15418): 100%
MAPK13 (Homo sapiens, UniProt O15264): 75%

Other studies, line by line
CC(C)[C@@H]1CC[C@@H](C)C[C@H]1O
viability (HaCaT; 100 µM, 60 h): 134%

CN1CC[C@H](c2c(O)cc(O)c3c(=O)cc(-c4ccccc4Cl)oc23)[C@H](O)C1
viability (HuT78; trypan blue exclusion; 0.0001 µM, 48 h; relative to: untreated): 97.2% and 95.8%

Excerpt of the above (set 3):
Cc1nn(CC(O)Cn2cnc3c2c(=O)n(C)c(=O)n3C)c(C)c1Br (stereo not drawn): 67%
Cc1nn(C)c(C)c1S(=O)(=O)Nc1ccc(-n2nn[nH]c2=O)cc1: 82%
Cc1ccc(NCc2nc3n(n2)CCCCC3)c(C)c1: 81.2%
Cc1ccccc1-c1noc(-c2cc3c(COC(=O)C(C)C)cnc(C)c3oc2=O)n1: 10.4%
CCn1cc(-c2cc(C(F)F)n3nc(C)cc3n2)c(C)n1: > 99%
